Published values of several laboratories.
Each line is one published result; not all experiments were run side by side. ± gives the spread as reported.

SMILES | target or system | assay | system | conditions | how to read | endpoint | value
Cn1cc(-c2ccc(-c3cncc(Cl)c3N3CCC4(CCNC4=O)CC3)cc2)cn1 | COLO 205 | gene expression, microarray, measured: C1orf61 mRNA |  | concentration not given, 2 h | baseline: untreated cells | log2 fold change | -3
CC(=O)N[C@@H](CSC(=O)[C@]1([C@@H](O)C(C)C)NC(=O)[C@H](C)[C@@H]1O)C(=O)O | Mus musculus | gene silencing, high-content imaging | LDR reporter GFP cells | retest, mean of two runs |  | EC50 | 31600 nM
Cc1ccc(N(c2ccc(NC(=O)CN(C)c3ccccc3N3CCCC3=O)cc2)C(C)C)cc1 | Plasmodium falciparum | gametocyte viability, luciferase | stage II-III gametocytes | 48 h |  | EC50 | 6 nM
CC(C)C[C@@H](C=O)NC(=O)[C@H](CC(C)C)NC(=O)[C@H](CC(C)C)NC(=O)OCc1ccccc1 | Mus musculus | gene silencing, high-content imaging | LDR reporter GFP cells | retest, mean of two runs |  | EC50 | 2510 nM
COc1ccc(Nc2cnnc3ccc(-c4cnc(N5CCCN(C)CC5)nc4)cc23)cc1Cl | Trypanosoma brucei | cell growth |  |  |  | EC50 | 210 ± 20 nM
Cc1cc(OC(C)C)ccc1C(=O)C(C)(C)NC(=O)c1sccc1C | Rhizoctonia solani | mycelial growth | PSA medium | 20 °C |  | EC50 | > 50 µg/mL
CN1CCN(c2ncc(-c3ccc4c(Nc5ncccn5)cnnc4c3)cn2)CC1 | Trypanosoma brucei | cell growth |  |  |  | EC50 | 13000 ± 1600 nM
C[C@@H](Oc1cc(-c2cnn(C3CCNCC3)c2)cnc1N)c1c(Cl)ccc(F)c1Cl | Trypanosoma brucei | cell growth |  |  |  | EC50 | 432 ± 75 nM
Cc1cc(C)c2sc(NC(=O)c3cc4ccccc4o3)nc2n1 | West Nile virus | cytopathic effect, neutral red uptake | Vero 76, Kern 515 |  |  | EC50 | > 32000 nM
NS(=O)(=O)c1cccc(-c2ccc(C3CCCCC3)cc2)c1 |  | hepatocyte stability | cryopreserved rat hepatocytes | 1 µM |  | hepatic clearance | 34 mL/min/kg
CC(C)C[C@H](NC(=O)C[C@H](O)[C@H](CC(C)C)NC(=O)[C@H](Cc1c[nH]cn1)NC(=O)CNC(=O)[C@@H](NC(=O)[C@H](C)NC(=O)[C@H](Cc1c[nH]c2ccccc12)NC(=O)[C@H](CCC(N)=O)NC(=O)[C@@H](Cc1ccccc1)NC(=O)COCCOCCNC(=O)CCC(C(=O)O)N1CCN(CC(=O)O)CCN(CC(=O)O)CCN(CC(=O)O)CC1)C(C)C)C(N)=O (stereo partly drawn) [lutetium-177 labelled] |  |  | BALB/c nu/nu mice, female, PC-3 xenograft tumour | intravenous, 100 pmol, 24 h, together with: PA 300 µg |  | tissue uptake | 3.7 ± 0.9 %ID/g
Cc1ncc(-c2ccnc(Nc3ccc(S(C)(=O)=O)cc3)n2)n1C(C)C | Trypanosoma brucei | cell growth |  |  |  | EC50 | 33 ± 2.7 nM
CN1CCN(c2ccc(-c3ccc4c(Nc5ncccn5)cnnc4c3)cc2)CC1 | Trypanosoma brucei | cell growth |  |  |  | EC50 | 6600 nM
O=C(Nc1ccc(C2CCCCC2)cc1)c1cn[nH]c1 |  |  | cryopreserved human hepatocytes | 1 µM |  | hepatic clearance | 17 mL/min/kg
CCCCOc1c(C(=O)c2c(F)cc(C)cc2F)c[nH]c2nncc1-2 | Trypanosoma brucei | cell growth |  |  |  | EC50 | 457 ± 163 nM
Nc1ccn(C[C@@H](CO)OCP(=O)(O)O)c(=O)n1 | Human adenovirus 2 | viral replication | HEL |  |  | EC50 | 5800 nM
CC(C)(C)c1cnc(CSc2cnc(NC(=O)C3CCNCC3)s2)o1 | Trypanosoma brucei | cell growth |  |  |  | EC50 | 118 ± 10 nM
CC(C)NCC(O)c1ccc(O)c(O)c1 (stereo not drawn) |  |  | ventricular cardiomyocytes, C57BL/6 mouse | dose not given, 0.104 s |  | sarcomere length | 1.72 µm

Excerpt of the above:
SMILES | target or system | assay | system | conditions | how to read | endpoint | value
CCCCOc1c(C(=O)c2c(F)cc(C)cc2F)c[nH]c2nncc1-2 | Trypanosoma brucei | cell growth |  |  |  | EC50 | 457 ± 163 nM
Nc1ccn(C[C@@H](CO)OCP(=O)(O)O)c(=O)n1 | Human adenovirus 2 | viral replication | HEL |  |  | EC50 | 5800 nM
CC(C)(C)c1cnc(CSc2cnc(NC(=O)C3CCNCC3)s2)o1 | Trypanosoma brucei | cell growth |  |  |  | EC50 | 118 ± 10 nM
